Assay results from different studies.
Protocols differ between the studies behind these lines. Values joined by “and” are separate records of one study, mostly repeats; a detail may differ. ± marks the error that the study gave.

SMILES = CSCC[C@H](N)C(=O)N[C@@H](C)C(=O)N[C@@H](Cc1c[nH]c2ccccc12)C(=O)N[C@@H](Cc1c[nH]cn1)C(=O)N[C@@H](CC(=O)O)C(=O)N[C@@H](CC(=O)O)C(=O)N[C@@H](CCC(=O)O)C(=O)N[C@@H](CCC(=O)O)C(=O)N[C@@H](Cc1ccccc1)C(=O)N[C@@H](C)C(=O)N[C@@H](CCCNC(=N)N)C(=O)N[C@@H](CCCNC(=N)N)C(=O)N[C@@H](CCCNC(=N)N)C(=O)N[C@@H](CCCNC(=N)N)C(=O)NCCCCCC(=O)NCCCCC(NC(=O)CCCCCNC(=O)[C@H](CCCNC(=N)N)NC(=O)[C@H](CCCNC(=N)N)NC(=O)[C@H](CCCNC(=N)N)NC(=O)[C@H](CCCNC(=N)N)NC(=O)[C@H](C)NC(=O)[C@H](Cc1ccccc1)NC(=O)[C@H](CCC(=O)O)NC(=O)[C@H](CCC(=O)O)NC(=O)[C@H](CC(=O)O)NC(=O)[C@H](CC(=O)O)NC(=O)[C@H](Cc1c[nH]cn1)NC(=O)[C@H](Cc1c[nH]c2ccccc12)NC(=O)[C@H](C)NC(=O)[C@@H](N)CCSC)C(=O)NCCCCC(NC(=O)C(CCCCNC(=O)CCCCCNC(=O)[C@H](CCCNC(=N)N)NC(=O)[C@H](CCCNC(=N)N)NC(=O)[C@H](CCCNC(=N)N)NC(=O)[C@H](CCCNC(=N)N)NC(=O)[C@H](C)NC(=O)[C@H](Cc1ccccc1)NC(=O)[C@H](CCC(=O)O)NC(=O)[C@H](CCC(=O)O)NC(=O)[C@H](CC(=O)O)NC(=O)[C@H](CC(=O)O)NC(=O)[C@H](Cc1c[nH]cn1)NC(=O)[C@H](Cc1c[nH]c2ccccc12)NC(=O)[C@H](C)NC(=O)[C@@H](N)CCSC)NC(=O)CCCCCNC(=O)[C@H](CCCNC(=N)N)NC(=O)[C@H](CCCNC(=N)N)NC(=O)[C@H](CCCNC(=N)N)NC(=O)[C@H](CCCNC(=N)N)NC(=O)[C@H](C)NC(=O)[C@H](Cc1ccccc1)NC(=O)[C@H](CCC(=O)O)NC(=O)[C@H](CCC(=O)O)NC(=O)[C@H](CC(=O)O)NC(=O)[C@H](CC(=O)O)NC(=O)[C@H](Cc1c[nH]cn1)NC(=O)[C@H](Cc1c[nH]c2ccccc12)NC(=O)[C@H](C)NC(=O)[C@@H](N)CCSC)C(N)=O (some centres unmarked); test system = C57BL/6 mouse female, brain; setting = dose not given, 3 h; scale = reference: total; endpoint = tissue distribution; result = 0.48% and 0.61% and 0.46%
SMILES = C=CCN1CCC23c4c5ccc(OC(=O)c6ccc(NC(=O)OC(C)(C)C)cc6)c4OC2C(=O)CCC3(O)C1C5 (centres unmarked); test system = rat plasma; setting = 1 h, no inhibitor; endpoint = remaining compound; result = 0%
SMILES = CCc1nn(C)c2nc(-c3ccc(C(=O)O)cc3)nc(NCc3ccccc3)c12; test system = NSG mice; setting = dose not given, day 5 of treatment; endpoint = body weight; result = 23.1 g and 23.3 g and 22.3 g and 23.5 g
SMILES = CC(C)=CCC/C(C)=C/CCn1cc(CC(P(=O)(O)O)P(=O)(O)O)nn1; test system = CD-1 mouse, plasma; setting = intravenous, 0.5 mg/kg, single dose; endpoint = AUC(0-inf); result = 1500 ± 119 ng·h/mL
SMILES = O=C1NC2(CC2)COc2ncc(F)cc2[C@H]2COCCN2c2ccn3ncc1c3n2; test system = Sprague-Dawley rat, male, serum; setting = oral, 20 mg/kg/day, end of treatment, 4-week subacute toxicity; endpoint = serum sodium; result = 146 ± 2 mmol/L
SMILES = CC(C)C[C@H](NC(=O)[C@H](C)NC(=O)[C@H](CCCCN)NC(=O)CCNC(=S)Nc1ccc2c(c1)C(=O)OC21c2ccc(O)cc2Oc2cc(O)ccc21)C(=O)N[C@@H](CCC(=O)O)C(=O)N[C@H](C(=O)N[C@@H](CC(C)C)C(=O)N[C@@H](CCCNC(=N)N)C(=O)N[C@@H](CCCNC(=N)N)C(=O)N[C@H](C(=O)NCC(=O)N[C@@H](CC(=O)O)C(=O)NCC(=O)N[C@H](C(=O)N[C@@]1(C)CCC/C=C\CCC[C@@](C)(C(=O)N[C@H](C(=O)N[C@@H](C)C(=O)N[C@@H](Cc2ccccc2)C(N)=O)[C@@H](C)O)NC(=O)[C@H](Cc2c[nH]cn2)NC(=O)[C@H](CC(N)=O)NC(=O)[C@H](CCCNC(=N)N)NC1=O)C(C)C)C(C)C)[C@@H](C)O; test = circular dichroism; test system = potassium phosphate buffer; setting = 20 µM, pH 7.5; endpoint = α-helicity; result = 91%
SMILES = CC(C)C[C@@H](NC(=O)[C@@H](CCCNC(=N)N)NC(=O)[C@@H](Cc1c[nH]cn1)NC(=O)[C@@H](Cc1c[nH]c2ccccc12)NC(=O)[C@@H](Cc1c[nH]cn1)NC(=O)[C@@H](Cc1ccccc1)NC(=O)[C@H](NC(=O)[C@@H](Cc1ccc(O)cc1)NC(=O)CNC(=O)CNC(=O)CCOCCOCCOCCNC(=O)CN1CCN(CC(=O)O)CCN(CC(=O)O)CC1)[C@H](C)O)C(=O)N[C@H](CC(N)=O)C(=O)N1CCC[C@@H]1C(=O)O [gallium-68 labelled]; test system = C57BL/6 mice, male; setting = intravenous, 1.85 MBq, 30 min; scale = reference: tumour over lung; endpoint = tissue ratio; result = 2.37 ± 0.39
SMILES = CC(C)[C@H](NC(=O)[C@@H](NC(=O)[C@H](CCCNC(=N)N)NC(=O)[C@H](CCCNC(=N)N)NC(=O)[C@H](CCCNC(=N)N)NC(=O)[C@H](CCC(N)=O)NC(=O)[C@H](CCCNC(=N)N)NC(=O)[C@H](CCCNC(=N)N)NC(=O)[C@H](CCCCN)NC(=O)[C@H](CCCCN)NC(=O)[C@H](CCCNC(=N)N)NC(=O)CN)[C@@H](C)O)C(=O)N[C@H](C(=O)N[C@@H](CO)C(=O)N1CCC[C@H]1C(=O)O)[C@@H](C)O; test system = ICR mice, female, brain; setting = intranasal, 10 mg/kg daily, 4 weeks; endpoint = organ weight; result = 0.577 ± 0.05 g
SMILES = CCCCC[C@@H]1NC(=O)[C@@H](C)N(C)C(=O)[C@H](CCCCC)OC(=O)[C@@H](C)N(C)C(=O)[C@H](CCCCC)NC(=O)[C@@H](C)N(C)C(=O)[C@H](CCCCC)OC(=O)[C@@H](C)N(C)C1=O; test = PAMPA; setting = 500 µM, pH 7.4, UV/ELSD/MS detection; endpoint = log Papp; result = -5.24
SMILES = CC[C@H](C)[C@H](NC(=O)[C@@H](NC(=O)[C@@H]1CCCN1C(=O)[C@@H](N)CCCNC(=N)N)C(C)C)C(=O)N[C@@H](CC(N)=O)C(=O)N[C@@H](CC(C)C)C(=O)N[C@@H](C)C(=O)N[C@@H](CS)C(=O)N[C@@H](CCCCN)C(=O)N[C@@H](CC(C)C)C(=O)N[C@@H](Cc1c[nH]c2ccccc12)C(=O)O; test system = mouse red blood cells; endpoint = minimal haemolytic concentration; result = 100 µM
SMILES = C[C@H](O)[C@@H](NC(=O)[C@H]1CCCN1C(=O)[C@@H](CCCCN)NC(=O)[C@@H](CO)NC(=O)[C@@H](Cc1ccc(O)cc1)NC(=O)[C@@H](CC(N)=O)NC(=O)CCOCCOCCOCCNC(=O)CN1CCN(CC(=O)O)CCN(CC(=O)O)CCN(CC(=O)O)CC1)C(=O)N[C@H](CC(=O)O)C(=O)N[C@H](CCCNC(=N)N)C(=O)N[C@H](CCC(N)=O)C(=O)N[C@H](Cc1ccc(O)cc1)C(=O)N[C@H](Cc1c[nH]cn1)C(=O)N[C@H](Cc1ccccc1)C(N)=O [gallium-68 labelled]; test system = BALB/c nude mice U-87 MG tumour, fat; setting = intravenous, 1.85 MBq, 0.08333 h, radiolabelled; endpoint = tissue uptake; result = 2.09 ± 0.49 %ID/g
SMILES = CN1Cc2cc(Cl)ccc2-n2c(nnc2C2CCN(c3cccc(F)n3)CC2)C1; test system = Sprague-Dawley rats male, striatum; setting = intravenous, 0.03 mg/kg, 5 min; endpoint = concentration; result = 8.78 ± 1.93 ng/mL
SMILES = CCCCCCCCCCCCCCCC(=O)N[C@@H](CCC(=O)NCCOCCOCCC(=O)NCCOCCOCCC(=O)NCCCC[C@H](NC(=O)[C@H](CC(=O)O)NC(=O)[C@H](CC(C)C)NC(=O)[C@H](Cc1ccc(O)cc1)NC(=O)[C@H](CCCCN)NC(=O)[C@H](CO)NC(=O)[C@H](Cc1ccc(O)cc1)NC(=O)[C@H](CC(=O)O)NC(=O)[C@H](CO)NC(=O)[C@@H](NC(=O)[C@H](Cc1ccccc1)NC(=O)[C@@H](NC(=O)CNC(=O)[C@H](CCC(N)=O)NC(=O)[C@@H](CO)NC(=O)[C@@H](N)Cc1c[nH]cn1)[C@@H](C)O)[C@@H](C)O)C(=O)N[C@@H](CCCNC(=N)N)C(=O)N[C@@H](CCCNC(=N)N)C(=O)N[C@@H](C)C(=O)N[C@@H](CCC(N)=O)C(=O)N[C@@H](CC(=O)O)C(=O)N[C@@H](Cc1ccccc1)C(=O)N[C@H](C(=O)N[C@@H](CCC(N)=O)C(=O)N[C@@H](Cc1c[nH]c2ccccc12)C(=O)N[C@@H](CC(C)C)C(=O)N[C@@H](CC(C)C)C(=O)N[C@@H](CC(N)=O)C(=O)N[C@H](C(=O)NCC(=O)NCC(=O)N1CCC[C@H]1C(=O)N[C@@H](CO)C(=O)N[C@@H](CO)C(=O)NCC(=O)N[C@@H](C)C(=O)N1CCC[C@H]1C(=O)N1CCC[C@H]1C(=O)N1CCC[C@H]1C(=O)N[C@@H](CO)C(N)=O)[C@@H](C)O)C(C)C)C(=O)O; test = measured: AST; test system = rhesus monkey, male; setting = subcutaneous, 300 µg/kg once daily, 28 days; endpoint = serum enzyme activity; result = 47.9 ± 15.5 U/L
SMILES = CCCC[C@@H]1NC(=O)[C@H](Cc2ccc(O)cc2)NC(=O)[C@@H]2CCCN2C(=O)[C@H](CC(=O)O)NC(=O)[C@H](C)NC(=O)[C@H](Cc2ccccc2)NC(=O)[C@@H]2CSCCC(=O)N3CN(CN(C3)C(=O)CCSC[C@@H](C(=O)N[C@@H](C)C(N)=O)NC1=O)C(=O)CCSC[C@H](NC(C)=O)C(=O)N[C@@H](CC(C)(C)C)C(=O)N1CCC[C@H]1C(=O)N[C@@H](CCC(=O)O)C(=O)N[C@H](CCCCNC(=O)CCc1cn(CCOCCOCCOCCN(CCOCCOCCOCCC(=O)N[C@H]3CSCCC(=O)N4CN5CN(C4)C(=O)CCSC[C@H](NC(=O)[C@@H](CC(=O)O)NC(=O)[C@H](Cc4cccc6ccccc46)NC(=O)[C@@H]4CCCN4C3=O)C(=O)N[C@@H](CCSC)C(=O)N[C@@H](CCCCNC(=N)N)C(=O)N[C@@H](CC(=O)O)C(=O)N[C@@H](Cc3c[nH]c4ccccc34)C(=O)N[C@@H](CO)C(=O)N[C@@H]([C@@H](C)O)C(=O)N3CCC[C@H]3C(=O)N3C[C@H](O)C[C@H]3C(=O)N[C@@H](Cc3c[nH]c4ccccc34)C(=O)N[C@H](C(N)=O)CSCCC5=O)CCOCCOCCOCCn3cc(CCC(=O)NCCCC[C@H]4NC(=O)[C@H](CCC(=O)O)NC(=O)[C@@H]5CCCN5C(=O)[C@H](CC(C)(C)C)NC(=O)[C@@H](NC(C)=O)CSCCC(=O)N5CN6CN(C5)C(=O)CCSC[C@H](NC(=O)[C@H](Cc5ccc(O)cc5)NC(=O)[C@@H]5CCCN5C4=O)C(=O)N[C@@H](Cc4ccccc4)C(=O)N[C@@H](C)C(=O)N[C@@H](CC(=O)O)C(=O)N4CCC[C@H]4C(=O)N[C@@H](Cc4ccc(O)cc4)C(=O)N[C@@H](CCCC)C(=O)N[C@H](C(=O)N[C@@H](C)C(N)=O)CSCCC6=O)nn3)nn1)C(=O)N1CCC[C@H]1C(=O)N[C@@H](Cc1ccc(O)cc1)C(=O)N2; test system = Sprague-Dawley rat; endpoint = unbound clearance; result = 41 mL/min/kg

For quick reference, copied from above:
SMILES = CC(C)C[C@H](NC(=O)[C@H](C)NC(=O)[C@H](CCCCN)NC(=O)CCNC(=S)Nc1ccc2c(c1)C(=O)OC21c2ccc(O)cc2Oc2cc(O)ccc21)C(=O)N[C@@H](CCC(=O)O)C(=O)N[C@H](C(=O)N[C@@H](CC(C)C)C(=O)N[C@@H](CCCNC(=N)N)C(=O)N[C@@H](CCCNC(=N)N)C(=O)N[C@H](C(=O)NCC(=O)N[C@@H](CC(=O)O)C(=O)NCC(=O)N[C@H](C(=O)N[C@@]1(C)CCC/C=C\CCC[C@@](C)(C(=O)N[C@H](C(=O)N[C@@H](C)C(=O)N[C@@H](Cc2ccccc2)C(N)=O)[C@@H](C)O)NC(=O)[C@H](Cc2c[nH]cn2)NC(=O)[C@H](CC(N)=O)NC(=O)[C@H](CCCNC(=N)N)NC1=O)C(C)C)C(C)C)[C@@H](C)O; test = circular dichroism; test system = potassium phosphate buffer; setting = 20 µM, pH 7.5; endpoint = α-helicity; result = 91%
SMILES = CC[C@H](C)[C@H](NC(=O)[C@@H](NC(=O)[C@@H]1CCCN1C(=O)[C@@H](N)CCCNC(=N)N)C(C)C)C(=O)N[C@@H](CC(N)=O)C(=O)N[C@@H](CC(C)C)C(=O)N[C@@H](C)C(=O)N[C@@H](CS)C(=O)N[C@@H](CCCCN)C(=O)N[C@@H](CC(C)C)C(=O)N[C@@H](Cc1c[nH]c2ccccc12)C(=O)O; test system = mouse red blood cells; endpoint = minimal haemolytic concentration; result = 100 µM
